Measurements gathered from unrelated publications.
Compare with care: the assays were run in different laboratories.

C[C@]1(O)C[C@@](N)(c2ccc(-c3nc4n(c3-c3ccccc3)COc3ccncc3-4)cc2)C1  patients with Stomatitis TEAE (human, advanced or metastatic solid tumours; dose not given, all patients, any grade): 17.6%
Cn1nc(NS(C)(=O)=O)c2c(Cl)ccc(-n3c([C@H](Cc4cc(F)cc(F)c4)NC(=O)Cn4nc(C(F)F)c5c4C(F)(F)[C@@H]4C[C@H]54)nc4nc(OCCC(F)(F)F)ccc4c3=O)c21  patients with laboratory abnormality (measured: LDL cholesterol grade 2 increase; human; 400 mg once daily, powder in bottle): 0%
CN(C)C(=O)c1cc2cnc(Nc3ccc(N4CCNCC4)cn3)nc2n1C1CCCC1  patients with adverse event (measured: Reproductive toxicity, AESI; human, HR+/HER2− advanced breast cancer; oral, dose not given, all grades, CTCAE v4.03): 0%
N[C@@H]1c2ccccc2OC12CCN(c1cnc3c(N4CCCc5ncccc54)n[nH]c3n1)CC2  patients with treatment-emergent adverse event (measured: Fatigue; human advanced or metastatic solid tumours; oral, 60 mg once daily, phase Ia pooled cohort): 40%
Cc1cn([C@H]2O[C@@H](CO[P@@](=O)(N[C@@H](C)C(=O)OC(C)C)Oc3ccccc3)[C@H](O)[C@H]2F)c(=O)[nH]c1=O  patients with any TEAE (human; oral, 10 mg once daily, 28 days): 17%
COc1ccc(-c2c(-c3ccc(C#N)c(F)c3)nc(N3CCC(N)CC3)n(C)c2=O)cc1F  patients with serious TEAE (measured: cauda equina syndrome; human patients; oral, dose not given, dose escalation): 2%
Cn1cncc1-c1c(F)cncc1NC(=O)c1c(N)nn2cc(F)cnc12  patients with platelet decrease DLT (human patients; oral, 180 mg once daily, 21 days, 2 weeks on 1 week off): 0%
C[C@@H]1OC(=O)NN=C1c1ccc(-c2ccc(F)cc2)c(C(F)(F)F)c1  patients with adverse event (phase I trial, measured: Nausea all grades; human patients; 5 mg loading then 0.25 mg daily): 100%
COc1ncnn2ccc(-c3cnc4nc(C)n(Cc5nnc([C@@H](C)F)o5)c4c3)c12  patients with increased blood creatinine (human; oral, dose not given, grade 2): 7.1%
C=CC(=O)Nc1cc(Nc2nccc(Nc3cc(Cl)c(F)cc3C(C)(C)O)n2)c(OC)cc1N1CC[C@@H](N(C)C)C1  patients with amylase increased (human patients; oral, 200 mg, treatment-emergent adverse events): 12.5%
O=C1Nc2cc3[nH]nc(-c4ccncc4)c3cc2CN1Cc1ccccc1  patients with QTc prolongation (CTCAE v4.03; human, relapsed or refractory advanced solid tumours; intravenous, 1.8 mg/kg, pooled schedules): 0%

For quick reference, copied from above:
C[C@@H]1OC(=O)NN=C1c1ccc(-c2ccc(F)cc2)c(C(F)(F)F)c1  patients with adverse event (phase I trial, measured: Nausea all grades; human patients; 5 mg loading then 0.25 mg daily): 100%
